Measured values of several laboratories.
Parts stem from different laboratories: compare values within a part only. Positions count from the first letter of the parent shown.

Block 1
Target: CCNA1, cyclin fold, Cln2 fusion (human)
Technique: yeast growth competition, sequencing
Medium: yeast
Notes: weak parent motif
Baseline: not given
Reading: higher = stronger binding
Quantity: normalised enrichment score
Starting sequence: INSM1 docking peptide (human); PKAIRKLHFEDEV; partner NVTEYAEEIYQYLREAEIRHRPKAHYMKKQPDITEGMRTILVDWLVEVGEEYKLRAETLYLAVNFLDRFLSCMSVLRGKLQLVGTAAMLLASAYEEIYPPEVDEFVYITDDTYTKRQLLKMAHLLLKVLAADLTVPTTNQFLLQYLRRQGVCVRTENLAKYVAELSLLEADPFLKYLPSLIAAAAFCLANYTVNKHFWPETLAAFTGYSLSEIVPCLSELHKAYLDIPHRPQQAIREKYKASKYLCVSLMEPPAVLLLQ
PKAIRKLHFEDTV [E12T]: 0.634
PKAIRLLHFEDEV [K6L]: 0.197
PKAIRKLHFECEV [D11C]: 1.4
PKAIRKLHFEDNV [E12N]: 0.402
PDAIRKLHFEDEV [K2D]: -0.143
PKAIRKLEFEDEV [H8E]: 0.534

Block 2
Target: ABI1, truncated, D143A, DHFR fusion (Arabidopsis thaliana)
Technique: DHFR PCA, deep sequencing
Medium: yeast
Notes: methotrexate growth selection, single substitutions
Added: (+)-ABA 0 µM
Baseline: wild-type fitted maximum
Reading: higher = stronger binding
Quantity: relative binding score
Starting sequence: PYL1, truncated, DHFR fusion (Arabidopsis thaliana); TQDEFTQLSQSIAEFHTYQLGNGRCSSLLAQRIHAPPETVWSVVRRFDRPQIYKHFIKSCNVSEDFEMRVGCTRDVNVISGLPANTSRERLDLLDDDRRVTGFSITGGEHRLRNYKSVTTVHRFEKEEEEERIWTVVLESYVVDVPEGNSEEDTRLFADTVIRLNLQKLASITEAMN; partner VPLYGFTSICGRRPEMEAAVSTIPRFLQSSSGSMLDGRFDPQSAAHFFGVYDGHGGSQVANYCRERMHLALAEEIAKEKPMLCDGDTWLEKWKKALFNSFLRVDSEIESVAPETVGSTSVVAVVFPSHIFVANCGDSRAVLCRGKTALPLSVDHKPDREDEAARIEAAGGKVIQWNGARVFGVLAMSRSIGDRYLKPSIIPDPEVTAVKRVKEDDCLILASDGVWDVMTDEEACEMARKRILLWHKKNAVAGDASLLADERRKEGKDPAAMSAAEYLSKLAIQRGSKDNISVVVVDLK
H122K: -5.12%
L93K: -0.961%
Q2G: 7.98%
H122R: 2.06%
H122F: -14.4%

Block 3
Target: Sal-like protein 4, full length isoform B (SALL4, Homo sapiens, UniProt Q9UJQ4-2, residues 1-616)
Technique: universal PBM
Form: double-stranded DNA, one strand shown
Medium: in vitro
Tested at: not given
Notes: 8-mer, flanks averaged, mean of replicates
Reading: higher = stronger binding
Quantity: E-score
CGTGATAA: 0.159
CTAGTTAA: 0.212
ACGCGGTA: -0.169
ACACTATG: 0.125
AACGGGAG: -0.0214
TAGCGATA: 0.172
CAGCACTC: -0.0743
AATCGACT: 0.00528
ACAAGCGC: -0.193
AGAGATTA: 0.102

Mixed results
PhoQ, residues 284 288 289 292 302 303 NLCILV  fold induction (PhoP, residues 12 14 15 18 19 LYHSL (Escherichia coli, UniProt P23836); Sort-seq, measured: YFP reporter; E. coli; PhoQ-PhoP variant library, added: 10 µM Mg2+; baseline: high Mg2+ state, higher = stronger signaling): 8.15

Some of these lines once more (block 1):
PKAIRKLHFECEV [D11C]: 1.4
